Published values gathered from unrelated publications.
Lines come from different studies, so protocols differ. Values joined by “and” are separate records of one study, mostly repeats; a detail may differ. Numbers after ± are the reported error.

| Structure (SMILES) | assay | test system | setting | scale | quantity | value |
| --- | --- | --- | --- | --- | --- | --- |
| CCc1cc(C(=O)NC)c2nccc(N3CCc4c(cc(Cn5ccnc5)cc4-c4cn(C)nc4C(F)(F)F)C3=O)c2c1 |  | Sprague Dawley rats | oral, 100 mg/kg once daily, 7 days |  | mean platelet volume | 8.03 ± 0.13 fL |
| CCN1/C(=C/C(C)=O)Sc2ccc(F)cc21 |  | cynomolgus monkey | oral, 30 mg/kg, 24 h post-dose |  | heart rate | 96 ± 13 beats/min |
| CC[C@@H]1CN(C(=O)NCC(F)(F)F)C[C@@H]1c1cnc2cnc3[nH]ccc3n12 | population PK modelling | human | oral, final model, outliers re-estimated | baseline: extended-release over immediate-release | relative bioavailability | 75.5% |
| O=C(Nc1nc2cccc(-c3ccc(CN4CCS(=O)(=O)CC4)cc3)n2n1)C1CC1 | measured: gastrointestinal disorders | human rheumatoid arthritis patients | oral, 30 mg once daily, 4 weeks, regardless of relatedness |  | treatment-emergent adverse events | 23.5% |
| O=C(O)CCCCCCCCCCCCCCC(=O)O |  | human, plasma | endogenous baseline diurnal | baseline: daily mean concentration | relative peak deviation | 59.9 ± 9.8% |
| Cc1ccc(Sc2ccccc2N2CCNCC2)c(C)c1 |  | healthy adult men | oral, 5 mg single dose, treatment-emergent adverse events |  | eczema incidence | 0% |
| CC(C)(C(=O)N1CCOc2c(C#N)cncc2C1)C(F)F | measured: blood and lymphatic disorders | human, both sexes | oral, 20 mg once daily, 14 days, multiple ascending dose |  | subjects with TEAE | 0% |
| CN[C@H](CC(C)C)C(=O)N[C@H]1C(=O)N[C@@H](CC(N)=O)C(=O)N[C@H]2C(=O)N[C@H]3C(=O)N[C@H](C(=O)N[C@H](C(=O)O)c4cc(O)cc(O)c4-c4cc3ccc4O)[C@H](O)c3ccc(c(Cl)c3)Oc3cc2cc(c3O[C@@H]2O[C@H](CO)[C@@H](O)[C@H](O)[C@H]2O[C@H]2C[C@](C)(N)[C@H](O)[C@H](C)O2)Oc2ccc(cc2Cl)[C@H]1O | Welch's t-test | C57BL/6N mice, faeces | oral, 1 vs 20 mg/mL | baseline: high dose over low dose | dose-normalised AUC | no effect |
| O=C(OC(C(F)(F)F)C(F)(F)F)N1CCN(Cc2cccc(Oc3ccccc3)c2)CC1 | PET blocking study | rhesus monkey, brain FCX | 0.03 mg/kg, compound pretreatment, with: [18F]T-401 tracer |  | k2 | 0.024 min⁻¹ |
| Cc1cc(-c2ccc3cc[nH]c(=O)c3c2)ccc1O[C@H]1O[C@H](CO)[C@@H](O)[C@H](O)[C@@H]1O |  | male Sprague-Dawley rat, urine | oral, 10 mg/kg, 24 h, mean | baseline: dose | urinary recovery | 0.13% |
| COc1ncc(-c2nc3c(n2C(C)C)[C@H](c2ccc(Cl)cc2)N(c2cc(Cl)cn(C)c2=O)C3=O)c(OC)n1 |  | human patients, plasma | oral, 45 mg, low-dose arm, cycle 2 day 1 |  | median half-life | 13.5 h |
| CNCc1ccc(-c2[nH]c3cc(F)cc4c3c2CCNC4=O)cc1 |  | human patients | oral, 600 mg twice daily, grade 4 |  | AST/ALT increased incidence | 0% |
| COc1ccc([C@@H](O)c2cc(-c3ncnc4cc(N5CCOCC5)ccc34)c(F)cc2Cl)nn1 |  | locally advanced rectal cancer patients | 50 mg, drug-related adverse events, with: capecitabine and radiotherapy |  | patients with anemia | 0% |
| NC1(C(=O)N[C@@H](CCO)c2ccc(Cl)cc2)CCN(c2nc[nH]c3nccc2-3)CC1 |  | metastatic CRPC patients | 320 mg b.i.d., grade 3 to 4, treatment-related, with: enzalutamide 160 mg daily |  | incidence of lower abdominal pain | 0% |
| N#Cc1ccc2c(c1)[C@H]1CCCN(C(=O)c3ccc4[nH]cnc4c3)[C@H]1C2 |  | human, female | 10 mg, day 15 |  | androstenedione level | 6.5 nmol/L |
| Cc1cc(-c2nnc(N)nc2-c2ccc(F)cc2)cc(Cl)n1 | measured: Hyperthyroidism | IO-naive mCRPC patients, male | oral, dose not given, treatment-related, grade 1 |  | patients with immune-mediated AE | 0% |
| O=C1CCc2ccc(OCCCCN3CCN(c4cccc(Cl)c4Cl)CC3)cc2N1 | measured: Sedation | genotyped patients, CYP2D6 normal metabolizers | dose not given, long-acting oral or depot |  | adverse event incidence | 11% |
| CC(C)(C)c1ccc(O)c(CN(Cc2cc(C(C)(C)C)ccc2O)C2CCC(NC(N)=O)CC2)c1 (stereo not shown) |  | C57BL/6 mice, male, brain | intraperitoneal, 5 mg/kg, single dose |  | dose-normalised Cmax | 125 ng/g per mg/kg |
| Cn1cc(Nc2nccc(-c3ccc4c(c3)CN(C3COC3)CC[C@H]4NC(=O)c3cn(C(C)(C)C)nn3)n2)cn1 | measured: transitional B cells | human, clinical trial, whole blood | 150 mg twice daily, follow-up |  | percent change from baseline | -55.2% |
| C[C@H]1O[C@@H](O[C@H]2[C@@H](O)C[C@H](O[C@H]3[C@@H](O)C[C@H](O[C@H]4CC[C@@]5(C)[C@H](CC[C@@H]6[C@@H]5C[C@@H](O)[C@]5(C)[C@@H](C7=CC(=O)OC7)CC[C@]65O)C4)O[C@@H]3C)O[C@@H]2C)C[C@H](O)[C@@H]1O | measured: infections and infestations | healthy men | oral, dose not given, 8 days, treatment-emergent, crossover trial |  | subjects with adverse event | 0% |

| Structure (SMILES) | assay | test system | setting | scale | quantity | value |
| --- | --- | --- | --- | --- | --- | --- |
| N=C(N)NCCNC(=O)C1(Nc2ccccc2)CCN(Cc2ccccc2)CC1 |  | Sprague-Dawley rats, both sexes, plasma | oral, 50 mg/kg, mean of both sexes |  | mean residence time | 0.4 ± 0.1 h |
| O=C1NCCc2nc(OCc3cccc(F)c3)ccc21 | measured: tail pinch | Sprague-Dawley rat male | oral, 100 mg/kg, 4 h | direction not given | Irwin test score | 0 |
| CCN(CCO)CCCC(C)Nc1ccnc2cc(Cl)ccc12 (stereo not shown) |  | human, whole blood | oral, 800 mg |  | average concentration | 2070 ng/mL and 1730 ng/mL |
| CNCCOC12CC3(C)CC(C)(CC(Cn4ncc(-c5ccc(N6CCc7cccc(C(=O)Nc8nc9ccccc9s8)c7C6)nc5C(=O)O)c4C)(C3)C1)C2 |  | beagle dog, male, anaesthetised | intravenous bolus, 0.03 mg/kg, 45 min | baseline: baseline | heart rate change | -1% |
| COc1ccc2c(=O)n(C)c(-c3ccccc3)nc2c1 |  | Sprague-Dawley rat, male, bladder | oral, 30 mg/kg, 2 h |  | tissue concentration | 14 ng/mL |
| CC(=O)N(C)[C@H]1CCN(C(=O)c2cnc3c(c2)C[C@](C)(c2ccc(F)cc2)N3)C1 |  | human | dose not given |  | creatine kinase | 32800 U/L |
| Nc1ncn([C@H]2C[C@H](O)[C@@H](CO)O2)c(=O)n1 |  | C57BL/6 mice, female | oral, 0.4 mg/kg |  | oral bioavailability | ~38% |
| Cc1cc(-c2nccc3c2ccn3CC(=O)Nc2ccc(-c3cnccn3)cn2)ccn1 |  | healthy human volunteers | oral, 7 mg single dose, single ascending dose |  | nervous system TEAEs | 0% |
| CC[C@H](C)[C@H](NC(=O)[C@H](Cc1ccccc1)NC(=O)[C@H](CCC(=O)O)NC(=O)[C@H](CCCCN)NC(=O)[C@H](C)NC(=O)[C@H](C)NC(=O)[C@H](CCC(N)=O)NC(=O)CNC(=O)[C@H](CCC(=O)O)NC(=O)[C@H](CC(C)C)NC(=O)[C@H](Cc1ccc(O)cc1)NC(=O)[C@H](CO)NC(=O)[C@H](CO)NC(=O)[C@@H](NC(=O)[C@H](CC(=O)O)NC(=O)[C@H](CO)NC(=O)[C@@H](NC(=O)[C@H](Cc1ccccc1)NC(=O)[C@@H](NC(=O)CNC(=O)[C@H](CCC(=O)O)NC(=O)[C@H](C)NC(=O)[C@@H](N)Cc1c[nH]cn1)[C@@H](C)O)[C@@H](C)O)C(C)C)C(=O)N[C@@H](C)C(=O)N[C@@H](Cc1c[nH]c2ccccc12)C(=O)N[C@@H](CC(C)C)C(=O)N[C@H](C(=O)N[C@@H](CCCCN)C(=O)NCC(=O)N[C@@H](CCCNC(=N)N)C(N)=O)C(C)C | RP-HPLC | pooled human male AB serum 25% v/v | 2 mg/mL, 24 h, 37 °C |  | percent degraded | ~80% |
| C[Si](C)(C)O[Si](C)(C)O[Si](C)(C)C |  |  |  |  | slope B, log KAW vs 1/T | -2060 |
| CC(C)Oc1c(NC(=O)c2ccc(NC(=O)[C@H](CC(N)=O)NC(=O)c3cc(F)c(/N=N/c4c(F)cccc4F)c(F)c3)cc2)ccc(C(=O)N/N=C/c2ccc(C(=O)O)s2)c1O | absorbance | DMSO | 50 °C, PSS to ground state relaxation |  | thermal half-life | 0.5 h |
| C[C@@H](Nc1cc(F)cc(F)c1)c1cc(C(=O)N(C)C)cc2c(=O)cc(N3CCOCC3)oc12 | measured: Rash | advanced solid tumour patients | oral, dose not given, dose expansion |  | related serious adverse events | 0% |
| O=C(O)CCCOc1ccc([18F])cc1-c1cc(-c2ccccc2C(F)(F)F)n(-c2ccccc2)n1 | gamma counting | male ddY mice, spleen | intravenous, 2.1 MBq, 5 min |  | radioactivity uptake | 0.45 ± 0.16 SUV |
| NC(=O)N1c2ccccc2C=Cc2ccccc21 | measured: musculoskeletal disorders (SOC) | human male | oral, dose not given, CTCAE on-treatment AEs |  | adverse events incidence | 13% |
| C=CC(=O)N1CCC(c2ccc(C(N)=O)c(-c3ccc(Oc4ccccc4)cc3)n2)CC1 | CTCAE 4.03 | patients with relapsed/refractory MCL | oral, dose not given |  | incidence of serious embolic cerebral infarction | 0.9% |
| COc1nnc2ccc(N3CCC(c4ccc(OCCN5CCN(C)C(=O)[C@H]5C)cc4)CC3)nn12 |  | patients, plasma | oral, 10 mg twice daily, single dose, monotherapy |  | terminal half-life | 1.77 h |
| NC(CO)(CO)CCc1ccc(Sc2cccc(OCc3ccccc3)c2)cc1Cl |  | human, supine | oral, 3 mg, 0 to 24 h, with: cyclosporin 100 mg |  | pulse rate AUEC, geometric mean | 1300 h×bpm |
| C[C@H]1CN(C(=O)CC#N)[C@]12CCN(c1ncnc3[nH]ccc13)C2 |  | human | oral, dose not given, all compound groups |  | participants with treatment-related TEAEs | 12.5% |
| O=C(N[C@H](Cc1c[nH]c2ccccc12)C(=O)Nc1ccncc1)c1ccc(N2CCN(c3ccc(F)cc3F)CC2)cc1F |  | Swiss Webster mouse, female, brain | oral, 50 mg/kg, 2 h, 20% HPβCD vehicle |  | concentration | 140 nM |
| O=C(O)CCC(=O)O.[2H]C([2H])([2H])Oc1cc(C)c2[nH]ccc2c1CN1CC[C@@H](C2CC2)C[C@H]1c1ccc(C(=O)O)cc1 | multiple ascending dose | healthy Chinese subjects | 50 mg twice daily |  | subjects with sinus bradycardia TEAE | 25% |

Excerpt of the above:
| Structure (SMILES) | assay | test system | setting | scale | quantity | value |
| --- | --- | --- | --- | --- | --- | --- |
| CC(C)(C)c1ccc(O)c(CN(Cc2cc(C(C)(C)C)ccc2O)C2CCC(NC(N)=O)CC2)c1 (stereo not shown) |  | C57BL/6 mice, male, brain | intraperitoneal, 5 mg/kg, single dose |  | dose-normalised Cmax | 125 ng/g per mg/kg |
| O=C(O)CCC(=O)O.[2H]C([2H])([2H])Oc1cc(C)c2[nH]ccc2c1CN1CC[C@@H](C2CC2)C[C@H]1c1ccc(C(=O)O)cc1 | multiple ascending dose | healthy Chinese subjects | 50 mg twice daily |  | subjects with sinus bradycardia TEAE | 25% |
| O=C1CCc2ccc(OCCCCN3CCN(c4cccc(Cl)c4Cl)CC3)cc2N1 | measured: Sedation | genotyped patients, CYP2D6 normal metabolizers | dose not given, long-acting oral or depot |  | adverse event incidence | 11% |
